Experimental data gathered from unrelated publications.
Lines come from different studies, so protocols differ. Numbers after ± are the reported error.
Cell line: SK-MEL-28

SMILES	test	setting	how to read	measurement	value
Cc1cccc(-c2cccc(C)n2)n1.Cc1cccc(-c2cccc(C)n2)n1.F[P-](F)(F)(F)(F)F.F[P-](F)(F)(F)(F)F.[Ru+2].c1ccc2c(c1)Cc1cc(-c3nc4c5cccnc5c5ncccc5c4[nH]3)ccc1-2	cell viability	normoxia, together with: blue light 453 nm, 100 J/cm2		EC50	3330 ± 160 nM
CNS(=O)(=O)Nc1nccc(Cc2c(C)c3ccc(Oc4ncccc4F)cc3oc2=O)c1F	cell viability	7 days		IC50	3.42 nM
[Cl-].[Cl-].[Ru+2].c1ccc(-c2ccccn2)nc1.c1ccc(-c2ccccn2)nc1.c1ccc2cc3nc4c5cccnc5c5ncccc5c4nc3cc2c1		visible light, oxygen 18.5%	relative to: dark EC50 over light EC50	phototherapeutic index	1630
Cc1cccc(-c2cccc(C)n2)n1.Cc1cccc(-c2cccc(C)n2)n1.F[P-](F)(F)(F)(F)F.F[P-](F)(F)(F)(F)F.[Ru+2].c1ccc(-c2nc3c4cccnc4c4ncccc4c3[nH]2)cc1		1% O2, together with: blue light 453 nm, 100 J/cm2	relative to: dark over light EC50	phototoxicity index	3
O=C(Nc1nnc2c1c(-c1ccc(Cl)cc1)nc1sc(=Cc3ccco3)c(=O)n12)c1ccccc1 (mixture of isomers)	SRB	10 µM, NCI60 single-dose screen	relative to: untreated	cell growth	48.1%
CC(C)(C)c1cc(-c2ccc3cccnc3n2)nc(-c2ccc3cccnc3n2)c1.COc1ccncc1.[Cl-].[Cl-].[Ru+2].c1ccc2cc3nc4c5cccnc5c5ncccc5c4nc3cc2c1	cell viability	dark, normoxia 18.5 % oxygen		EC50	103000 ± 3000 nM
Cc1ccnc(-c2cc(C)ccn2)c1.Cc1ccnc(-c2cc(C)ccn2)c1.F[P-](F)(F)(F)(F)F.[Ru+2].[c-]1cccc2c1c1ncccc1c1[nH]c(-c3ccc(-c4cccs4)s3)nc21	cell viability, Alamar Blue	dark		EC50	350 to 500 nM
[Cl-].[Cl-].[Ru+2].c1cnc2c(c1)ccc1cccnc12.c1cnc2c(c1)ccc1cccnc12.c1csc(-c2ccc(-c3nc4c5cccnc5c5ncccc5c4[nH]3)s2)c1	cell viability, resazurin	normoxia, together with: 523 nm light 100 J cm^-2		EC50	~500 nM
CN(C)CCN1CCN(c2ccc3nc(-c4ccc5nc(-c6ccc(C(F)(F)F)cc6)[nH]c5c4)[nH]c3c2)CC1	SRB	10 µM, 48 h		growth percent	42.7%
Cc1cccc(-c2cccc(C)n2)n1.Cc1cccc(-c2cccc(C)n2)n1.F[P-](F)(F)(F)(F)F.F[P-](F)(F)(F)(F)F.[Ru+2].c1ccc2c(-c3nc4c5cccnc5c5ncccc5c4[nH]3)c3ccccc3cc2c1		1% O2, together with: blue light 453 nm, 100 J/cm2	relative to: dark over light EC50	phototoxicity index	3
CCCC(CCC)C(=O)OCc1cn(-c2cc3ccccc3oc2=O)nn1	NCI60 single-dose screen	10 µM		growth percentage	100%
CCN(C(=O)c1cc(F)ccc1Oc1nncnc1N1CCC2(C1)CN([C@H](CCCN(C)CCOC)C(C)C)C2)C(C)C	cell growth or viability	7 days		GI50	> 10000 nM
Cc1cccc(-c2cccc(C)n2)n1.Cc1cccc(-c2cccc(C)n2)n1.F[P-](F)(F)(F)(F)F.F[P-](F)(F)(F)(F)F.[Ru+2].c1cc2ccc3ccc(-c4nc5c6cccnc6c6ncccc6c5[nH]4)c4ccc(c1)c2c34	cell viability	dark, 1% O2		EC50	59700 ± 500 nM
CC(C)=CC1OC(C)(C)C2C=C3C(=O)C(Cl)=CC(O)C3C3C(O)C4OC4C(=O)C132 (centres unmarked)	cell growth or viability, MTS			IC50	900 nM

Some of these lines once more:
SMILES	test	setting	how to read	measurement	value
O=C(Nc1nnc2c1c(-c1ccc(Cl)cc1)nc1sc(=Cc3ccco3)c(=O)n12)c1ccccc1 (mixture of isomers)	SRB	10 µM, NCI60 single-dose screen	relative to: untreated	cell growth	48.1%
CC(C)(C)c1cc(-c2ccc3cccnc3n2)nc(-c2ccc3cccnc3n2)c1.COc1ccncc1.[Cl-].[Cl-].[Ru+2].c1ccc2cc3nc4c5cccnc5c5ncccc5c4nc3cc2c1	cell viability	dark, normoxia 18.5 % oxygen		EC50	103000 ± 3000 nM
